Results gathered from unrelated publications.
Numbers after ± are the reported error. Values after ≈ are worked out from the molar mass of the structure shown.

Under “serious adverse event incidence”, `COc1ccc(-c2c(-c3ccc(C#N)c(F)c3)nc(N3CCC(N)CC3)n(C)c2=O)cc1F` is recorded as 2% (item: Hyperglycemia; human patients; oral, dose not given, dose escalation, NG).
The dose-normalised AUC(0-inf) of `Cc1nonc1Cn1nnc2c(N3CC[C@H](O)C3)nc(C(C)(C)C)nc21` is reported as 248 kg·ng·h/mL/mg (C57BL/6 mice; oral, 2.8 mg/kg).
`CC(=O)c1c(C)c2cnc(Nc3ccc(C4CCN(CCS(C)(=O)=O)CC4)cn3)nc2n(C2CCCC2)c1=O` — result for “patients with AST increased”: 13.3% (HR+/HER2- advanced breast cancer patients; oral, 100 mg twice daily, all grades,, monotherapy).
Under “platelet count decrease incidence”, `Cn1ncc(-c2nc(N[C@H]3CC[C@H](N)CC3)ncc2Cl)c1CC1CC1` is recorded as 3.2% (phase I dose escalation; human patients; dose not given, treatment-related grade 3 or higher).
For `CO[C@H]1C[C@@H]2CC[C@@H](C)[C@@](O)(O2)C(=O)C(=O)N2CCCC[C@H]2C(=O)O[C@H]([C@H](C)C[C@@H]2CC[C@@H](OC(=O)NCCOCCOCCOCCOCCOCCOCCOCCOCCC(=O)N3CCc4cc(Cn5nc(-c6ccc7oc(N)nc7c6)c6c(N)ncnc65)ccc4C3)[C@H](OC)C2)C[C@@H](O)[C@H](C)/C=C(\C)[C@@H](O)[C@@H](OC)C(=O)[C@H](C)C[C@H](C)/C=C/C=C/C=C/1C`, “AE leading to dose interruption” read 50% (patients with advanced solid tumours; intravenous, 10 mg weekly, grade 3 or higher).
With `COc1ncccc1-c1cnn2ccc(N3CCN(C(=O)OC(C)C)CC3)nc12` the drug concentration was 10 µM (rat, CCI cold allodynia model, brain; oral, 30 mg/kg, 240 min).
`Cc1cccc(Cn2nc(C3CC3)c3c(NC(=O)c4cnc5cc(OCCN6CCN(C)CC6)ccn45)cccc32)n1` — result for “adverse events incidence”: 59.3% (item: Fatigue; human pancreatic ductal adenocarcinoma; oral, dose not given, all-causality).
With `CN1CCN(c2ccc(Nc3nccc(-c4cccc(F)c4)n3)cc2C(F)(F)F)CC1` the toxicity was 0% (zebrafish embryos; 25 µM, 5 d).
The CLint of `CC1(C)[C@H](C(=O)OCc2cccc(Oc3ccccc3)c2)[C@@H]1C=C(Cl)Cl` is reported as 57.2 µL/min/mg (pooled human liver cytosol).
`CCN1CCN(Cc2ccc(Nc3ncc(F)c(-c4cc(F)c5nc6n(c5c4)[C@H](C)CCC6)n3)nc2)CC1` — result for “Anemia incidence, any grade”: 66.7% (advanced solid tumour patients; dose not given, Phase Ia monotherapy).
`Clc1cc(Cl)c(-c2cc(Cl)c(Cl)c(Cl)c2Cl)cc1Cl` — result for “literature range factor”: 17 (polyethylene-water partitioning; PCB compilation; reference: maximum over minimum K).
For `Nc1nc2cc(-c3ccc4ncc(C(=O)N5CCOCC5)n4c3)ccc2o1`, “patients with adverse events” read 7% (item: Hyperglycemia, any cause, grade ≥3; patients with advanced solid tumours; dose not given).
`Clc1ccc(-c2ccc(Cl)cc2Cl)cc1` gave a log K(PDMS-water) of 5.16 ± 0.03 (fresh water; 20 °C, SSP sampler, 100 µm).
`COc1cc2c(Oc3ccc4[nH]c(C)cc4c3F)ccnc2cc1OCC1(N)CC1`: “blurred vision incidence” 0% (paediatric refractory sarcoma patients; 8 mg).
With `CCN1[C@@H](C(=O)NC23CCC(C(=O)O)(CC2)CC3)[C@H](c2cccc(Cl)c2F)[C@]2(C(=O)Nc3cc(Cl)ccc32)C12CCCCC2` the Anemia incidence was 50% (patients with advanced solid tumours; oral, 200 mg).
`CCN(CCO)CCCC(C)Nc1ccnc2cc(Cl)ccc12` (stereo not drawn) — result for “neutrophil decrease patients”: 66% (newly diagnosed glioblastoma patients; oral, 200 mg/dose, grade 2, together with: radiotherapy and temozolomide).
`O=C(Nc1ccccc1)C1CCN(C(=O)Oc2cccnc2)CC1`: “change in Tense-Relaxed score” 16 (Bond-Lader VAS; healthy women; oral, 100 mg; reference: pre-dose baseline, direction not given).
For `O=S(=O)(Nc1ccccc1)c1ccc(NC(=S)Nc2ccccc2)cc1`, “relative organ weight” read 4.88% (female mice, liver; oral, 5 mg/kg daily 14 days; reference: body weight).
Under “adverse event incidence”, `[O-][S+]1CCc2nc(N3CCC(c4ncc(Cl)cn4)CC3)nc(NC3(CO)CCC3)c21` (stereo not drawn) is recorded as 0% (item: Nausea; healthy male humans; 48 mg single dose).
With `CCCSc1ccc2nc(NC(=O)OC)[nH]c2c1` the monocytes was 1.38% (mouse, blood; oral, 50 mg/kg, tolerability, mean).
`COc1cc2c(cc1OC)CN(CCc1ccc(NC(=O)c3cccc4c(=O)c5cccc(OC)c5[nH]c34)cc1)CC2`: “elimination rate constant” 1.38e-05 s⁻¹ (CD-1 mouse, male, plasma; intraperitoneal, 10 mg/kg).
With `CC(C)C[C@@H]1NC(=O)[C@H](CC(N)=O)NC(=O)[C@H](CCCNC(=N)N)NC(=O)[C@H]([C@@H](C)O)NC(=O)[C@@H]2CSSC[C@@H]3NC(=O)[C@H]([C@@H](C)O)NC(=O)CNC(=O)CNC(=O)[C@H](C(C)C)NC(=O)[C@@H]4CSSC[C@H](NC(=O)[C@H](CCCCN)NC(=O)[C@H](CSSC[C@H](NC(=O)[C@H](C(C)C)NC(=O)[C@@H]5CCCN5C(=O)[C@H](CC(C)C)NC1=O)C(=O)NCC(=O)N[C@@H](CCC(=O)O)C(=O)N[C@@H]([C@@H](C)O)C(=O)N4)NC(=O)CNC(=O)[C@@H]1CCCN1C(=O)[C@H]([C@@H](C)O)NC(=O)[C@H](CC(N)=O)NC3=O)C(=O)N[C@@H](CO)C(=O)N[C@@H](Cc1c[nH]c3ccccc13)C(=O)N1CCC[C@H]1C(=O)N[C@@H](C(C)C)C(=O)N2` the remaining peptide was 97.8 ± 0.6% (HPLC; water; 180 µM, 14 days, 37 °C, deamidation stability).
With `O[C@H]1CCCN[C@@H]1CCCn1cnc2c(Cl)c(Cl)ccc21` the Cmax was 235 ng/mL (human, UGT2B7 ND+DD phenotype, plasma; oral, 150 mg, single dose).
Under “patients with adverse event”, `CN1CC[C@@H](c2c(O)cc(O)c3c(=O)cc(-c4ccc(C(F)(F)F)cc4Cl)oc23)[C@@H]1CO` is recorded as 0% (item: Neutropenia; relapsed B-cell malignancies or AML; oral, 100 mg, grade 3-4, continuous dosing).
The solubility of `COc1cc(Nc2ncc(F)c(Nc3ccc4c(n3)NC(=O)C(C)(C)O4)n2)cc(OC)c1OC` is reported as 2.6 µM (≈ 1.22 µg/mL) (non-kinase assay buffer; 24 h, pH 7.5, 0.1% DMSO).
`C[C@]1(CO)Cc2ncn(-c3ccc(C#N)c(Cl)c3)c2C(=O)O1` — result for “accumulation ratio of AUC(0-tau)”: 1 to 1.08 (healthy Japanese subjects, plasma; multiple doses, tau 24 h, range).
Under “red cell distribution width CV”, `O=[N+]([O-])c1ccc2c(c1)S(=O)(=O)C=C2` is recorded as 0.15% (male C57BL/6 mice, blood; intraperitoneal, 10 mg/kg, day 8, group average).
